Published values of several laboratories.
Parts stem from different laboratories: compare values within a part only.
Sequence of UniProt P08913 (whole entry, looked up): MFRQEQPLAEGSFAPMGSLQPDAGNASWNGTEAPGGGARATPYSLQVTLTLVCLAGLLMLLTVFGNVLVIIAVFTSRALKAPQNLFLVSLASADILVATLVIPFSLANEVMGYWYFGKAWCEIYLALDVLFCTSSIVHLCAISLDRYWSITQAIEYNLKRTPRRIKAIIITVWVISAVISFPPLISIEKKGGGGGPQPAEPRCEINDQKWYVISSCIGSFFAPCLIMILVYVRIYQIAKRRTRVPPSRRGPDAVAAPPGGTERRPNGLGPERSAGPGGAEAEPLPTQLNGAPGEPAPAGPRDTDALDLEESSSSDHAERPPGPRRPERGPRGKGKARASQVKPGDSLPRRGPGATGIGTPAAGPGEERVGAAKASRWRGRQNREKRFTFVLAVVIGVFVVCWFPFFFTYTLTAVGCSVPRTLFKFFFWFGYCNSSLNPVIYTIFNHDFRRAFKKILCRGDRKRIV
Sequence of UniProt Q9C7I9 (whole entry, looked up): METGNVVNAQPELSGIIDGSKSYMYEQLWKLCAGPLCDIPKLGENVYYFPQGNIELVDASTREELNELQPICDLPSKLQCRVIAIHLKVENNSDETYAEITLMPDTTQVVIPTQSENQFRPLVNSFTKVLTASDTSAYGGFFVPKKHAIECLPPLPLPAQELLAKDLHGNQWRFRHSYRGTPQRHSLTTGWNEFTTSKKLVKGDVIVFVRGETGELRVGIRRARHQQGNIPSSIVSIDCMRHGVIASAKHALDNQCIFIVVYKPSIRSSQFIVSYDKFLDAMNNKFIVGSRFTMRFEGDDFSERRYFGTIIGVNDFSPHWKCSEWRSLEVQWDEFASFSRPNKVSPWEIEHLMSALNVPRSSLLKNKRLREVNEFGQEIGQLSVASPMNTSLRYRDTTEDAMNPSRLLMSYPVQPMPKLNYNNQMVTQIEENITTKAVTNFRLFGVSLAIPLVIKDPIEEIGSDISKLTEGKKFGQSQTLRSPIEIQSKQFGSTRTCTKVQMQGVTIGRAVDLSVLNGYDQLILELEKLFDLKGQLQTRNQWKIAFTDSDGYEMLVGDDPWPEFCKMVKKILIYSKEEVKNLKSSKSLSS
Sequence of UniProt P18825 (whole entry, looked up): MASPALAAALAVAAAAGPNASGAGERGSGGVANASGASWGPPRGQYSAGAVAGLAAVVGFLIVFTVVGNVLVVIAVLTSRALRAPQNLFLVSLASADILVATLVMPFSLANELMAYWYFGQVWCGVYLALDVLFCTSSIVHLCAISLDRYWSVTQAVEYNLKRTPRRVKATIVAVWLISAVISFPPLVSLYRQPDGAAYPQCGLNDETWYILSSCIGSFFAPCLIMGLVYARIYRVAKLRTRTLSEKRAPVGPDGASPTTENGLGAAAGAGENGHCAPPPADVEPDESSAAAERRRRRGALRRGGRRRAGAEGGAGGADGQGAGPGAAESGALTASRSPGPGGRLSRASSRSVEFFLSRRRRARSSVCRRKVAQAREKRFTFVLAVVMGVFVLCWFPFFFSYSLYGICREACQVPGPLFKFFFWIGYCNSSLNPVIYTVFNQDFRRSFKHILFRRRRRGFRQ
Sequence of UniProt Q5BJF2 (whole entry, looked up): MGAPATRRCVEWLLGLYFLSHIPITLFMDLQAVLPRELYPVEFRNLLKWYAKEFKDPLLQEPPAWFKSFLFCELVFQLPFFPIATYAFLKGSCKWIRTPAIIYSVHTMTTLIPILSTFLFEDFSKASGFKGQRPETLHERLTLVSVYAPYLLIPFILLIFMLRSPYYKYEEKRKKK
Sequence of UniProt O24409 (whole entry, looked up): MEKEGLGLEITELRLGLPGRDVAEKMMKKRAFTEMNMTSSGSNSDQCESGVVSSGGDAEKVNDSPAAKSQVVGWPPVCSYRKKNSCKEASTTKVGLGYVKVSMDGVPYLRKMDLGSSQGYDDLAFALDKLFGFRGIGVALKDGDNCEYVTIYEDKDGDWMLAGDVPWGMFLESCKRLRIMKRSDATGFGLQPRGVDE
Sequence of UniProt Q8RYC8 (whole entry, looked up): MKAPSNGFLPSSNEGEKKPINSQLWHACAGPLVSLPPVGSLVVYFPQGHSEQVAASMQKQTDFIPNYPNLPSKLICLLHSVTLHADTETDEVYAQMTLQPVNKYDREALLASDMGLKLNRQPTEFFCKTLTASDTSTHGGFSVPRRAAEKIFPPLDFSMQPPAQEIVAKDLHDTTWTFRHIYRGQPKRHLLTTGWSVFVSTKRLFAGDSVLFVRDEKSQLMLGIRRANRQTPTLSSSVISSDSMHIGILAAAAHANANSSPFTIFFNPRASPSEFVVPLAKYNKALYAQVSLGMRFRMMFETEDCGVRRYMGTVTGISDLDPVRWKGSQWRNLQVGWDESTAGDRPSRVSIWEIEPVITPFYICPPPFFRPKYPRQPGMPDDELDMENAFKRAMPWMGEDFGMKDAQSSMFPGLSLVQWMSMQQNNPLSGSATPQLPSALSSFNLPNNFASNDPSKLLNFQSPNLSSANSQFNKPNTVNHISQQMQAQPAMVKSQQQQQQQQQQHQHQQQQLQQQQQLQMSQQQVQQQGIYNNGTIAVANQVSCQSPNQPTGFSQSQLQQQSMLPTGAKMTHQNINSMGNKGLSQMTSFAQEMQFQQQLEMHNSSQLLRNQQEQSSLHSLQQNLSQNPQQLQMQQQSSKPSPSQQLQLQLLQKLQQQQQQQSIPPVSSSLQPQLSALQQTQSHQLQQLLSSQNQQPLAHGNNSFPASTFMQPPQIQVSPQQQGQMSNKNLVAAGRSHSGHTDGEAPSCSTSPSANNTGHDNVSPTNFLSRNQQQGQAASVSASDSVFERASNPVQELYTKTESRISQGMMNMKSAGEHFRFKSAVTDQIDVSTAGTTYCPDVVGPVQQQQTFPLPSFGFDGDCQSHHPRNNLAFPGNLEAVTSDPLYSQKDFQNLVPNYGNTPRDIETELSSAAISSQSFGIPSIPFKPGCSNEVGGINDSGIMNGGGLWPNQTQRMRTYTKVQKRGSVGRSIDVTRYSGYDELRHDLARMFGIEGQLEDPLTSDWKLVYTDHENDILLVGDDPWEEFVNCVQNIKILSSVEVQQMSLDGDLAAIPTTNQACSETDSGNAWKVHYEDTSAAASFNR
Sequence of UniProt P25100 (whole entry, looked up): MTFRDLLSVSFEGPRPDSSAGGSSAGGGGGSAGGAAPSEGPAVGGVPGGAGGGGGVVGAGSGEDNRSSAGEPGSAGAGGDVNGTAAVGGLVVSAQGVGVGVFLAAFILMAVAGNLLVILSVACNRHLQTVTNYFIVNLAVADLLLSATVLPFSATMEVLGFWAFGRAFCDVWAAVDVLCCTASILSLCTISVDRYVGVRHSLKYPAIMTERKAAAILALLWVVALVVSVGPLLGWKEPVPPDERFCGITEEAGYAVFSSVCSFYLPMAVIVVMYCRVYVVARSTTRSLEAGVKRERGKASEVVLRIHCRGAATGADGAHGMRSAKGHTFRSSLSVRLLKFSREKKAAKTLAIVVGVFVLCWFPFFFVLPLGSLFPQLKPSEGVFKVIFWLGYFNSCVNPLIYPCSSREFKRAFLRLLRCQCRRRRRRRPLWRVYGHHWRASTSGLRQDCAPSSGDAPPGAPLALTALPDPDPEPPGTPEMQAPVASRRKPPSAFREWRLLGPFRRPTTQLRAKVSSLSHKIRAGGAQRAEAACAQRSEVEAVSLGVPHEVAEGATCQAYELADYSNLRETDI

Block 1
Sequence: B1 (IAA8)
Method: two-hybrid
Reading: higher = firmer interaction
Quantity: positive tests
B1: IAA8 (Arabidopsis thaliana, UniProt Q38826); chain MSYRLLSVDKDELVTSPCLKERNYLGLSDCSSVDSSTIPNVVGKSNLNFKATELRLGLPESQSPERETDFGLLSPRTPDEKLLFPLLPSKDNGSATTGHKNVVSGNKRGFADTWDEFSGVKGSVRPGGGINMMLSPKVKDVSKSIQEERSHAKGGLNNAPAAKAQVVGWPPIRSYRKNTMASSTSKNTDEVDGKPGLGVLFVKVSMDGAPYLRKVDLRTYTSYQQLSSALEKMFSCFTLGQCGLHGAQGRERMSEIKLKDLLHGSEFVLTYEDKDGDWMLVGDVPWEIFTETCQKLKIMKGSDSIGLAPGAVEKSKNKERV
ARF20 484-590 (Arabidopsis thaliana, UniProt Q9C7I9); relative to: out of 4 tests: 0
IAA19 (Arabidopsis thaliana, UniProt O24409); relative to: out of 2 tests: 2
ARF19 948-1086 (Arabidopsis thaliana, UniProt Q8RYC8); relative to: out of 3 tests: 2

Block 2
Target: Interferon regulatory factor 3, full length, phosphomimetic (IRF3, Homo sapiens, UniProt Q14653, residues 1-427, S386D/S396D/S398D/S402D/T404D/S405D)
Sequence of UniProt Q14653 (whole entry, unmodified, looked up): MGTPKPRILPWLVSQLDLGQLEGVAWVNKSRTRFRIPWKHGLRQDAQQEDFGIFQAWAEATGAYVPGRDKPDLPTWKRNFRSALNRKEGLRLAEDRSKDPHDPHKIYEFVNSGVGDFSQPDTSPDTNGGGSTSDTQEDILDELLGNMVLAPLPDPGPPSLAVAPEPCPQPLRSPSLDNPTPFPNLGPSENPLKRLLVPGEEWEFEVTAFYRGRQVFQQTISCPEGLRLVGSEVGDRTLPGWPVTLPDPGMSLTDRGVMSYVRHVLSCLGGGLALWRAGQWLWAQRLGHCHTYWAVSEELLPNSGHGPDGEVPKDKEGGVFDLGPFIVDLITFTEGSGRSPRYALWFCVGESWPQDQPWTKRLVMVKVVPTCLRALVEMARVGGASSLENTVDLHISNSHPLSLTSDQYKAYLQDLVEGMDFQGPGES
Method: protein-binding microarray
Molecule type: double-stranded DNA, one strand shown
Matrix: in vitro
Concentration: 2540 nM top
Notes: 60-bp whole probe
With: salmon DNA 0.4 mg/ml
Relative to: random background probes
Reading: higher = stronger binding
Quantity: fitted relative affinity
Shared flanks, not repeated: GCCTAGCAC … GTCTTGATTCGCTTGACGCTGCTG
TTAGGTTTCCTTATCCGTTAGTGCTAG: 7.83 z-score
TACTTTCTTTTTTTCTTTTAGTGCTAG: 5.78 z-score
TCATTTCTCAACCATTTTACTGTGCTA: 2.76 z-score
CCAGGAAAAGGGATTCAGTTGTGCTAG: -0.0789 z-score
GACGGGATCCTTATCCTGACGTGCTAG: 2.84 z-score
TCATGTTTGATCTTGATACTGTGCTAG: 0.331 z-score
TCACCAATGGTCTTTCCAACTGTGCTA: 0.0552 z-score
GACGGACTGCTTTTCCCGACGTGCTAG: -0.0159 z-score

Block 3
Structure (SMILES): CS(=O)(=O)c1cc(C2(NC(=O)c3cncc4c3cnn4-c3ccc(F)cc3)CC2)ccn1
Observed: cell-free assay
Concentration: 10 µM
Quantity: inhibition
Alpha-2A adrenergic receptor (ADRA2A, Homo sapiens, UniProt P08913): -2.44%
Alpha-2C adrenergic receptor (ADRA2C, Homo sapiens, UniProt P18825): -6.8%
Alpha-1D adrenergic receptor (ADRA1D, Homo sapiens, UniProt P25100): -7.67%
Sigma non-opioid intracellular receptor 1 (SIGMAR1, Homo sapiens, UniProt Q99720): 26.4%
Sigma intracellular receptor 2 (TMEM97, Homo sapiens, UniProt Q5BJF2): 9.02%
Alpha-1B adrenergic receptor (ADRA1B, Homo sapiens, UniProt P35368): -10.2%

Block 4
Target: High affinity nerve growth factor receptor (NTRK1, Homo sapiens, UniProt P04629)
Sequence of UniProt P04629 (whole entry, looked up): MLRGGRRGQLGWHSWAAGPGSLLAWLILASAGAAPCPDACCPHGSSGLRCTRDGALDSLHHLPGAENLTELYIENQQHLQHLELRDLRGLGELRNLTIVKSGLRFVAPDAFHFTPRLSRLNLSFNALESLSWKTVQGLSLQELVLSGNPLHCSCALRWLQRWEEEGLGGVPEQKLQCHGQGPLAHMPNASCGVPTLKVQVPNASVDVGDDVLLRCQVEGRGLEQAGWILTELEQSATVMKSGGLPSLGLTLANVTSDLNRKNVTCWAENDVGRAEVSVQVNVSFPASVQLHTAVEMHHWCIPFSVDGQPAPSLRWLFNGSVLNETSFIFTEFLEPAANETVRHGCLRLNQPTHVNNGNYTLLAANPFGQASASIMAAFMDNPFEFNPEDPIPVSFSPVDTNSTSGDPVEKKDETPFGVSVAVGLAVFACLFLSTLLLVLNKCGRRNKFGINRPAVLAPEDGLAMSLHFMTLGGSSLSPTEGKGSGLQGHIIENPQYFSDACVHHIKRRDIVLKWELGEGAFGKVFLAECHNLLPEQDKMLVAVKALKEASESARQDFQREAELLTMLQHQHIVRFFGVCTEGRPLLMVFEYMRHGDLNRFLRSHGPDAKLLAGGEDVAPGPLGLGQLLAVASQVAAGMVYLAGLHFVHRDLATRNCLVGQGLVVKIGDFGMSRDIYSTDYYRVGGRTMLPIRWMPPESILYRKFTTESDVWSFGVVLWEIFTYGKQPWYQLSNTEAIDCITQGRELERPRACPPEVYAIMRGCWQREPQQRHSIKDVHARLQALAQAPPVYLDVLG
Observed: enzyme activity
Action: inhibitor
Concentration: 0.5 µM
Relative to: control
Quantity: remaining activity
COc1cc2ncnc(Nc3ccc(F)c(Cl)c3)c2cc1OCCCN1CCOCC1: 103%
O=C(CCCc1ccc(-c2ccccc2F)cc1)Nc1ccc(O)cc1: 103%
Nc1[nH]nc2nc3ccccc3nc12: 88.3%
Cn1sc(=O)n(Cc2ccccc2)c1=O: 99.3%
C#Cc1cccc(Nc2ncnc3cc(OCCOC)c(OCCOC)cc23)c1: 102%
Cc1ccc(Nc2nccc(N(C)c3ccc4c(C)n(C)nc4c3)n2)cc1S(N)(=O)=O: 91.8%
Nc1ncnc2n[nH]c(Nc3ccc(F)cc3)c12: 109%
COc1ccc(C(=O)Nc2sc3c(c2C(N)=O)CCCC3)cc1OC: 104%
O=C(Nc1cccc(Nc2cc(Nc3cccc(C(F)(F)F)c3)ncn2)c1)C1CC1: 99.6%
COc1ccc(OC)c2c(=S)c3ccccc3[nH]c12: 87.5%
CO[C@H]1C[C@@H]2CC[C@@H](C)[C@@](O)(O2)C(=O)C(=O)N2CCCC[C@H]2C(=O)O[C@H]([C@H](C)C[C@@H]2CC[C@@H](O)[C@H](OC)C2)CC(=O)[C@H](C)/C=C(\C)[C@@H](O)[C@@H](OC)C(=O)[C@H](C)C[C@H](C)/C=C/C=C/C=C/1C: 98.4%
OCC(O)CCON=C1C(c2c(O)[nH]c3ccccc23)=Nc2ccccc21 (centres unmarked): 3.84%
CC(C)[C@H](CO)Nc1nc(Nc2cc(N)cc(Cl)c2)c2ncn(C(C)C)c2n1: 45.4%
O=C(O)c1ccc2c3c1cccc3c(=O)n1c3ccccc3nc21: 105%
Cc1cccc(-c2[nH]c(C(C)(C)C)nc2-c2ccc3c(c2)OCO3)n1: 96.5%

A few entries again (block 4):
O=C(CCCc1ccc(-c2ccccc2F)cc1)Nc1ccc(O)cc1: 103%
Nc1[nH]nc2nc3ccccc3nc12: 88.3%
